Assay results from different studies.
Protocols differ between the studies behind these lines. Values joined by “and” are separate records of one study, mostly repeats; a detail may differ. ± marks the error that the study gave.

Molecule	assay	system	setting	scale	quantity	value
Cc1c(O)cc2c(c1C)O[C@](C)(CCC[C@H](C)CCC[C@H](C)CCCC(C)C)CC2	HPLC	female Nu/Nu BALB/c mouse, serum	oral diet, 500 mg/kg diet, at euthanasia	–	serum concentration	1300 ± 200 nM
COc1nnc2ccc(N3CCC(c4ccc(OCCN5CCN(C)C(=O)[C@H]5C)cc4)CC3)nn12	–	Han Wistar rat, plasma	oral	–	clearance	2.5 mL/min/kg
CC(C)c1nc(CN(C)C(=O)N[C@H](C(=O)N[C@@H](Cc2ccccc2)C[C@H](O)[C@H](Cc2ccccc2)NC(=O)OCc2cncs2)C(C)C)cs1	–	healthy men, plasma	600 mg single dose, added: amenamevir 400 mg	–	AUC(0-t) geometric mean	82500 ng·h/mL
COc1cccc(N2CCN(C3=Nc4c(F)cccc4[C@H](CC(=O)O)N3c3cc(C(F)(F)F)ccc3OC)CC2)c1	UHPLC-MS/MS	healthy women, plasma	intravenous infusion, 720 mg single dose, 60 min infusion, HPβCD formulation	–	volume of distribution	74.1 ± 32 L
CS(=O)(=O)n1cc2c(n1)CN([C@H]1CO[C@H](c3cc(F)ccc3F)[C@@H](N)C1)C2	–	healthy male human, plasma	oral, 25 mg once weekly, day 1, fasted, geometric mean	–	concentration at 168 h	18.8 nM
O=C(CCc1ccccc1)c1cc(F)ccc1OCC(O)CN1CCC(c2ccccc2)CC1 (stereo not shown)	metabolic stability	human, liver microsomes	20 µM, pH 7.4	–	scaled CLint	11.2 mL/min/kg
O=C(CCCCCCC(=O)Nc1ccccc1)NO	–	patients, serum	oral, 600 mg, cycle 1, added: flavopiridol	–	AUC(0-7 h)	9.35 µM·h
O=C(/C=C/c1ccc(O)c(O)c1/C=C/c1ccc(O)c(O)c1)O[C@H](Cc1ccc(O)c(O)c1)C(=O)O	UPLC-MS/MS	Wistar rat, microcirculation dysfunction model, plasma	oral, 100 mg/kg Salvia miltiorrhiza stem-leaf extract FT	–	CL/F	33 ± 15.7 mL/min/kg
CNCc1ccc(-c2cc(-c3nc(-c4ccc(S(=O)(=O)C(C)C)cc4)cnc3N)on2)cc1	–	mouse BALB/c female, plasma	intravenous, 2.0 mg/kg, from AUC(0-inf)	–	CL	38.5 mL/min/kg
Cc1ccc(Nc2nccc(N(C)c3ccc4c(C)n(C)nc4c3)n2)cc1S(N)(=O)=O	equilibrium dialysis	patients, albumin below sample A g/L, plasma	6 h, 37 °C, median	–	fraction unbound	0.000227 ± 0.000122
CC1=C2C[C@H]3[C@@H](CC[C@@H]4C[C@H](NS(C)(=O)=O)CC[C@@]43C)[C@@H]2CC[C@@]2(C1)O[C@@H]1C[C@H](C)CN[C@H]1[C@H]2C	–	patients, plasma	oral, 60 mg single, day -7, cycle 1	–	Tmax	4 h
C[C@]12CC[C@@H]3c4ccc(O)cc4CC[C@H]3[C@@H]1C[C@@H](O)[C@@H]2O	GC-MS	breast cancer women on NSAI, serum	vaginal, 0.03 mg, 3 h, day 0	–	minimum serum concentration	0 ng/mL
CC(C)(O/N=C(\C(=O)N[C@H]1CN2CC(C(=O)NCCN3C(=O)c4cc(O)c(O)cc4C3=O)=C(C(=O)O)N2C1=O)c1nc(N)sc1Cl)C(=O)O	–	CD-1 mouse, plasma	subcutaneous, 50 mg/kg, 0.5 h	–	plasma concentration	20200 ng/mL
Cn1cnc2c(F)c(Nc3ccc(Br)cc3Cl)c(C(=O)NOCCO)cc21	population pharmacokinetic model	human, plasma	oral, dose not given	–	central volume of distribution/F	31.7 L
Cn1cc(-c2ccc3nnc(Sc4ccc5ncccc5c4)n3n2)cn1	–	CD-1 mouse male, hepatic S9	1 µM, pH 7.4, added: without NADPH	–	CLint	24.4 ± 9.31 mL/min/kg
CN[C@H](CC(C)C)C(=O)N[C@H]1C(=O)N[C@@H](CC(N)=O)C(=O)N[C@H]2C(=O)N[C@H]3C(=O)N[C@H](C(=O)N[C@H](C(=O)O)c4cc(O)cc(O)c4-c4cc3ccc4O)[C@H](O)c3ccc(c(Cl)c3)Oc3cc2cc(c3O[C@@H]2O[C@H](CO)[C@@H](O)[C@H](O)[C@H]2O[C@H]2C[C@](C)(N)[C@H](O)[C@H](C)O2)Oc2ccc(cc2Cl)[C@H]1O	–	BALB/c mouse, serum	iv, dose not given	–	serum globulin	3 ± 0.2 g/dL
NC(=O)CN[C@H]1CCCNC1	capillary electrophoresis-MS	water	–	–	pKa1	5.21
NCCCC[C@@H]1NC(=O)[C@@H](Cc2c[nH]c3ccccc23)NC(=O)[C@H](c2ccccc2)NC(=O)[C@@H]2C[C@@H](OC(=O)NCCN)CN2C(=O)[C@H](Cc2ccccc2)NC(=O)[C@H](Cc2ccc(OCc3ccccc3)cc2)NC1=O	–	healthy human volunteers	subcutaneous, 300 µg, 2 h, post-prandial	–	blood glucose	116 mg/dL
O=C1N=C(N2CCOCC2)CN1c1ccc(Cl)cc1	–	beagle dog, female	oral, 30 mg/kg, tablets, fed	–	terminal half-life	1.97 h
CCCC[C@@H]1NC(=O)[C@@H](NC(=O)[C@H](CCC(=O)O)NC(=O)CNC(=O)CN2CCN(CC(=O)O)CCN(CC(=O)O)CCN(CC(=O)O)CC2)CCCCNC(=O)C[C@@H](C(N)=O)NC(=O)[C@H](C(C)C)NC(=O)[C@@H]2CCCN2C(=O)[C@H](CCCNC(=N)N)NC(=O)CNC(=O)[C@H](Cc2c[nH]c3ccccc23)NC(=O)[C@H](CCCNC(=N)N)NC(=O)[C@@H](Cc2ccccc2)NC(=O)[C@H](Cc2c[nH]cn2)NC(=O)[C@H](CCC(=O)O)NC1=O [indium-111 labelled]	–	normal C57 mice, heart	intravenous, 0.037 MBq, 2 h	–	tissue uptake	0.04 ± 0.03 %ID/g
COc1cccc(CN)c1O	–	mouse C57BL/6N male, brain	oral drinking water, 3 g/L/day, 1 week	–	brain concentration	92000 nM
O=C(O)Cc1cc(F)ccc1Nc1c(Cl)cc(F)cc1Cl	–	human liver microsomes	30 min, added: NADPH	–	remaining compound	107 ± 2.2%
CN(C)C(=O)c1cc2cnc(Nc3ccc(N4CCNCC4)cn3)nc2n1C1CCCC1	–	human, tumour core	oral, 600 mg daily for 14 days, 4 to 8 h after last dose	–	total concentration	21.8 nmol/g and 21.5 nmol/g
Nc1ccc(S(=O)(=O)Nc2ccnn2-c2ccccc2)cc1	enzyme activity, inhibitor	human liver microsomes	10 µM, added: rosiglitazone 10 µM	–	inhibition	42%
CCOc1ccc(Cc2cc([C@]34OC[C@](CO)(O3)[C@@H](O)[C@H](O)[C@H]4O)ccc2Cl)cc1	equilibrium dialysis	human, type 2 diabetes, mild renal impairment, plasma	oral, 15 mg, 6 h	–	fu	0.0346

Molecule	assay	system	setting	scale	quantity	value
Cc1cc(=O)n(-c2ccccc2)n1C	–	perfused human term placental cotyledon	531 µM, 1 to 120 min, 36.5 °C, maternal to fetal, added: barusiban 1.2 µM	–	steady-state placental transfer	~29%
COC(=O)c1ccc2c(c1)NC(=O)/C2=C(\Nc1ccc(N(C)C(=O)CN2CCN(C)CC2)cc1)c1ccccc1	–	human, Child-Pugh B hepatic impairment, plasma	oral, 100 mg, single dose, fed	adjusted geometric mean	AUC(0-tz)	652 ng·h/mL
CC1(C)Oc2cc3oc(=O)ccc3cc2C[C@@H]1O	–	male CD-1 mouse, plasma	oral gavage, 80 mg/kg daily, 4 weeks	–	plasma Chol level	167 ± 28.3 mg/dL
CC[C@H](C)[C@H](NC(=O)[C@H](CCCCN)NC(=O)[C@@H]1CCCN1C(C)=O)C(=O)N[C@@H](CCC(=O)O)C(=O)N[C@H](C(=O)N[C@@H](CCCCN)C(=O)N[C@H](C(=O)N[C@@H](CCC(=O)O)C(=O)N1CCC[C@H]1C(N)=O)[C@@H](C)CC)[C@@H](C)CC	rotational rheometry	1% w/v aqueous solution	shear rate range 1-1000 s^-1	–	viscosity	3570 ± 157 Pa·s
des-acyl ghrelin (human)	–	mouse, wild type, hypothalamus	intravenous, 10 min	–	brain/serum ratio	9.62 µL/g
CCCC[C@H](NC(C)=O)C(=O)N[C@H]1CCC(=O)NC[C@@H](C(=O)N[C@@H](Cc2c[nH]c3ccccc23)C(N)=O)NC(=O)[C@H](CCCNC(=N)N)NC(=O)[C@@H](Cc2ccccc2)NC(=O)[C@H](Cc2c[nH]cn2)NC1=O	–	CD Sprague Dawley rat, female, plasma	subcutaneous, 1.0 mg/kg daily, day 1	–	CL/F	18.4 mL/min/kg
COc1cc(/C=C/C(=O)CC(=O)/C=C/c2ccc(O)c(OC)c2)ccc1O	I-125 label	C57BL/6J mouse, olfactory lobes	intranasal vs intraperitoneal, 10 µg/mouse IN, 100 µg/mouse IP, 12 h	baseline: intranasal over intraperitoneal	brain uptake ratio	3.15
CNCc1ccc(-c2[nH]c3cc(F)cc4c3c2CCNC4=O)cc1	–	human patients, plasma	oral, 480 mg twice daily, day 15, steady state, median	–	Tmax	1.51 h
CCCOc1ccc([C@H]2CNC(=O)N2c2ccc3[nH]cnc3c2)cc1	–	human volunteers fasted, plasma	oral solution, 10 mg single dose, day 1, geometric mean	–	effective half-life	2.05 h
Cc1nc2cccc(OCC(C)(C)C(=O)NC(C)C)c2c(N)c1C(=O)O	–	male Sprague-Dawley rat, plasma	oral gavage, 100 mg/kg, day 7	–	Tmax	0.25 h
O=C(Cc1cccc(OC(F)(F)F)c1)Nc1ccc(CCCCc2nnc(NC(=O)Cc3ccccn3)s2)nn1	–	human	oral, 600 mg twice daily, fed, steady state, cycle 1 day 15, median	–	Cmin	348 ng/mL
Cc1cc(C)c(C#N)c(SCC(=O)c2ccc(Cl)cc2)n1	metabolic stability	human, liver microsomes	0.5 µM, pH 7.4	–	microsomal CLint	620 µL/min/mg
CC(C)=CCC[C@](C)(O[C@@H]1O[C@H](CO)[C@@H](O)[C@H](O)[C@H]1O)[C@H]1CC[C@]2(C)[C@@H]1[C@H](O)C[C@@H]1[C@@]3(C)CC[C@H](O[C@@H]4O[C@H](CO)[C@@H](O)[C@H](O)[C@H]4O[C@@H]4O[C@H](CO)[C@@H](O)[C@H](O)[C@H]4O)C(C)(C)[C@@H]3CC[C@]12C	–	Sprague Dawley rat, male, plasma	oral, 42 mg/kg, pure ginsenoside mixture in water	–	CL/F	50 ± 18.3 mL/min/kg
NC(=O)OCC(COC(N)=O)c1ccccc1	–	Sprague-Dawley rat, male, blood	oral, 300 mg/kg, 6 h	–	AST	88.8 ± 7.9 U/L
CC(C)NC[C@@H](C(=O)N1CCN(c2ncnc3c2[C@H](C)C[C@H]3O)CC1)c1ccc(Cl)cc1	–	human, Mild hepatic function, plasma	oral, 100 mg single dose, NCI classification, arithmetic mean	–	t1/2	59.9 h
Cc1nc(Nc2ncc(C(=O)Nc3c(C)cccc3Cl)s2)cc(N2CCN(CCO)CC2)n1	–	C57BL/6 mouse, male, gall bladder	oral, 10 mg/kg, 5 min, undetectable	–	concentration	< 10 ng/mL
CNc1cc(-c2csc(N(C)C(=O)c3ccc([18F])cc3)n2)ncn1	–	formulation for injection	room temperature	–	radiochemical stability duration	≥ 4 h
liraglutide	equilibrium dialysis	human plasma 50% diluted	10 nM, 4 to 5 h, pH 7.4, 37 °C, inner-outer ratio 100:1	–	plasma protein binding	99.3%
OC[C@H]1O[C@@H](c2ccc(Cl)c(Cc3ccc(O[C@H]4CCOC4)cc3)c2)[C@H](O)[C@@H](O)[C@@H]1O	HPLC-MS/MS	healthy Chinese volunteers, fasting	oral, 10 mg tablet, 1.25 h	–	plasma concentration	168 ± 44.1 ng/mL
Cn1c(-c2ccc(C(N)=O)cc2F)nnc1C(C)(C)Oc1c(F)cc(Cl)cc1F	–	healthy young Japanese subjects, plasma	oral, 10 mg once daily, day 18, 14 days dosing	–	Tmax median	2 h
C#Cc1c(F)ccc2cc(O)cc(-c3ncc4c(N5CC6CCC(C5)N6)nc(OC[C@@]56CCCN5C[C@H](F)C6)nc4c3F)c12	–	female Balb/c nude mouse, tumour model	oral, 126 mg/kg twice daily of prodrug, 8 h after last dose	–	tumour concentration	2440 ng/g
Cc1ccnc2c1NC(=O)c1cccnc1N2C1CC1	–	olive baboon (Papio anubis), non-pregnant, serum	oral, 400 mg, tablet, single dose	–	AUC(0-8 h)	1940 ± 57.2 ng·h/mL
Nc1cc(F)ccc1NC(=O)c1ccc(CNC(=O)/C=C/c2cccnc2)cc1	–	Japanese patients, urine	oral, 40 mg, cycle 1 day 1, arithmetic mean	–	renal clearance	29.2 mL/min
NC1(c2ccc(-c3nc4ccn5c(=O)[nH]nc5c4cc3-c3ccccc3)cc2)CCC1	–	human, expansion	oral, 135 mg	–	apparent volume of distribution	2230 ± 646 L
